Assay results of several laboratories.
Lines come from different studies, so protocols differ. Values joined by “and” are separate records of one study, mostly repeats; a detail may differ. Numbers after ± are the reported error.
B1: CFH 1108-1231 (Homo sapiens, UniProt P08603); sequence looked up; chain KCGPPPPIDNGDITSFPLSVYAPASSVEYQCQNLYQLEGNKRITCRNGQWSEPPKCLHPCVISREIMENYNIALRWTAKQKLYSRTGESVEFVCKRGYRLSSRSHTLRTTCWDGKLEYPTCAKR
B2: Cacna1c 1647-1777 (Mus musculus, UniProt Q01815); sequence looked up; chain NALSLQAGLRTLHDIGPEIRRAISGDLTAEEELDKAMKEAVSAASEDDIFRRAGGLFGNHVTYYQSDSRGNFPQTFATQRPLHINKTGNNQADTESPSHEKLVDSTFTPSSYSSTGSNANINNANNTALGR
B3: PPARG AF-1 1-136 (Homo sapiens, UniProt P37231-1); pT75, pS112; chain MGETLGDSPIDPESDSFTDTLSANISQEMTMVDTEMPFWPTNFGISSVDLSVMEDHSHSFDIKPFTTVDFSSISTPHYEDIPFTRTDPVVADYKYDLKLQEYQSAIKVEPASPPYYSEKTQLYNKPHEEPSNSLMA
B4: NFE2L2 99-160 (Homo sapiens, UniProt Q16236); fluorescein label; chain GSANYSQVAHIPKSDALYFDDCMQLLAQTFPFVDDNEVSSATFQSLVPDIPGHIESPVFIATN
B5: FBLN4 (Homo sapiens, UniProt O95967); N-glycans removed; sequence looked up; chain SASPQDSEEPDSYTECTDGYEWDPDSQHCRDVNECLTIPEACKGEMKCINHYGGYLCLPRSAAVINDLHGEGPPPPVPPAQHPNPCPPGYEPDDQDSCVDVDECAQALHDCRPSQDCHNLPGSYQCTCPDGYRKIGPECVDIDECRYRYCQHRCVNLPGSFRCQCEPGFQLGPNNRSCVDVNECDMGAPCEQRCFNSYGTFLCRCHQGYELHRDGFSCSDIDECSYSSYLCQYRCINEPGRFSCHCPQGYQLLATRLCQDIDECESGAHQCSEAQTCVNFHGGYRCVDTNRCVEPYIQVSENRCLCPASNPLCREQPSSIVHRYMTITSERSVPADVFQIQATSVYPGAYNAFQIRAGNSQGDFYIRQINNVSAMLVLARPVTGPREYVLDLEMVTMNSLMSYRASSVLRLTVFVGAYTF
B6: IL23R 24-355 (Homo sapiens, UniProt Q5VWK5); sequence looked up; chain GITNINCSGHIWVEPATIFKMGMNISIYCQAAIKNCQPRKLHFYKNGIKERFQITRINKTTARLWYKNFLEPHASMYCTAECPKHFQETLICGKDISSGYPPDIPDEVTCVIYEYSGNMTCTWNAGKLTYIDTKYVVHVKSLETEEEQQYLTSSYINISTDSLQGGKKYLVWVQAANALGMEESKQLQIHLDDIVIPSAAVISRAETINATVPKTIIYWDSQTTIEKVSCEMRYKATTNQTWNVKEFDTNFTYVQQSEFYLEPNIKYVFQVRCQETGKRYWQPWSSLFFHKTPETVPQVTSKAFQHDTWNSGLTVASISTGHLTSDNRGDIG
B7: Bcl2l11 (Mus musculus, UniProt O54918-2); chain MAKQPSDVSSECDREGGQLQPAERPPQLRPGAPTSLQTEPQDRSPAPMSCDKSTQTPSPPCQAFNHYLSAMASIRQSQEEPEDLRPEIRIAQELRRIGDEFNETYTRRVFANDYREAEDHPQMVILQLLRFIFRLVWRRH
B8: USP3 ZnF-UBD 1-131 (Homo sapiens); chain MECPHLSSSVCIAPDSAKFPNGSPSSWCCSVCRSNKSPWVCLTCSSVHCGRYVNGHAKKHYEDAQVPLTNHKKSEKQDKVQHTVCMDCSSYSTYCYRCDDFVVNDTKLGLVQKVREHLQNLENSAFTADRH
B9: CDC48A 1-190 (Arabidopsis thaliana, UniProt P54609); chain MSTPAESSDSKSKKDFSTAILERKKSPNRLVVDEAINDDNSVVSLHPATMEKLQLFRGDTILIKGKKRKDTVCIALADETCEEPKIRMNKVVRSNLRVRLGDVISVHQCPDVKYGKRVHILPVDDTVEGVTGNLFDAYLKPYFLEAYRPVRKGDLFLVRGGMRSVEFKVIETDPAEYCVVAPDTEIFCEG
B10: LLGL2 13-978 (Homo sapiens, UniProt Q6P1M3); phosphorylated serines; chain RERLKRDLFQFNKTVEHGFPHQPSALGYSPSLRILAIGTRSGAIKLYGAPGVEFMGLHQENNAVTQIHLLPGQCQLVTLLDDNSLHLWSLKVKGGASELQEDESFTLRGPPGAAPSATQITVVLPHSSCELLYLGTESGNVFVVQLPAFRALEDRTISSDAVLQRLPEEARHRRVFEMVEALQEHPRDPNQILIGYSRGLVVIWDLQGSRVLYHFLSSQQLENIWWQRDGRLLVSCHSDGSYCQWPVSSEAQQPEPLRSLVPYGPFPCKAITRILWLTTRQGLPFTIFQGGMPRASYGDRHCISVIHDGQQTAFDFTSRVIGFTVLTEADPAATFDDPYALVVLAEEELVVIDLQTAGWPPVQLPYLASLHCSAITCSHHVSNIPLKLWERIIAAGSRQNAHFSTMEWPIDGGTSLTPAPPQRDLLLTGHEDGTVRFWDASGVCLRLLYKLSTVRVFLTDTDPNENFSAQGEDEWPPLRKVGSFDPYSDDPRLGIQKIFLCKYSGYLAVAGTAGQVLVLELNDEAAEQAVEQVEADLLQDQEGYRWKGHERLAARSGPVRFEPGFQPFVLVQCQPPAVVTSLALHSEWRLVAFGTSHGFGLFDHQQRRQVFVKCTLHPSDQLALEGPLSRVKSLKKSLRQSFRRMRRSRVSSRKRHPAGPPGEAQEGSAKAERPGLQNMELAPVQRKIEARSAEDSFTGFVRTLYFADTYLKDSSRHCPSLWAGTNGGTIYAFSLRVPPAERRMDEPVRAEQAKEIQLMHRAPVVGILVLDGHSVPLPEPLEVAHDLSKSPDMQGSHQLLVVSEEQFKVFTLPKVSAKLKLKLTALEGSRVRRVSVAHFGSRRAEDYGEHHLAVLTNLGDIQVVSLPLLKPQVRYSCIRREDVSGIASCVFTKYGQGFYLISPSEFERFSLSTKWLVEPRCLVDSAETKNHRPGNGAGPKKAPSRARNSGTQSDGEEKQPGLVMER
B11: STAU1 (Homo sapiens, UniProt O95793); sequence looked up; chain MSQVQVQVQNPSAALSGSQILNKNQSLLSQPLMSIPSTTSSLPSENAGRPIQNSALPSASITSTSAAAESITPTVELNALCMKLGKKPMYKPVDPYSRMQSTYNYNMRGGAYPPRYFYPFPVPPLLYQVELSVGGQQFNGKGKTRQAAKHDAAAKALRILQNEPLPERLEVNGRESEEENLNKSEISQVFEIALKRNLPVNFEVARESGPPHMKNFVTKVSVGEFVGEGEGKSKKISKKNAAIAVLEELKKLPPLPAVERVKPRIKKKTKPIVKPQTSPEYGQGINPISRLAQIQQAKKEKEPEYTLLTERGLPRRREFVMQVKVGNHTAEGTGTNKKVAKRNAAENMLEILGFKVPQAQPTKPALKSEEKTPIKKPGDGRKVTFFEPGSGDENGTSNKEDEFRMPYLSHQQLPAGILPMVPEVAQAVGVSQGHHTKDFTRAAPNPAKATVTAMIARELLYGGTSPTAETILKNNISSGHVPHGPLTRPSEQLDYLSRVQGFQVEYKDFPKNNKNEFVSLINCSSQPPLISHGIGKDVESCHDMAALNILKLLSELDQQSTEMPRTGNGPMSVCGRC
B12: NR3C1 1-525 (Homo sapiens, UniProt P04150); pyrene label; chain MDSKESLTPGREENPSSVLAQERGDVMDFYKTLRGGATVKVSASSPSLAVASQSDSKQRRLLVDFPKGSVSNAQQPDLSKAVSLSMGLYMGETETKVMGNDLGFPQQGQISLSSGETDLKLLEESIANLNRSTSVPENPKSSASTAVSAAPTEKEFPKTHSDVSSEQQHLKGQTGTNGGNVKLYTTDQSTFDILQDLEFSSGSPGKETNESPWRSDLLIDENCLLSPLAGEDDSFLLEGNSNEDCKPLILPDTKPKIKDNGDLVLSSPSNVTLPQVKTEKEDFIELCTPGVIKQEKLGTVYCQASFPGANIIGNKMSAISVHGVSTSGGQMYHYDMNTASLSQQQDQKPIFNVIPPIPVGSENWNRCQGSGDDNLTSLGTLNFPGRTVFSNGYSSPSMRPDVSSPPSSSSTATTGPPPKLCLVCSDEASGCHYGVLTCGSCKVFFKRAVEGQHNYLCAGRNDCIIDKIRRKNCPACRYRKCLQAGMNLEARKTKKKIKGIQQATTGVSQETSENPGNKTIVPATL
B13: GIGYF1 33-103 E44A/E45F/Q87A (Homo sapiens, UniProt O75420); chain KYKLADYRYGRAFMLALYVKENKVPEELQDKEFAAVLQDEPLQPLALEPLTEEEARNFSLSVNSVAVLRLM
B14: protein F105A (Arabidopsis thaliana, UniProt Q9LYC2); sequence looked up; chain MTMLRVRSRDGLERVSVDGPHITVSQLKTLIQDQLQIPIHNQTLSTNRNLLLAKSPSDFLAFTDMADPNLRISSLNLAHGSMVYLAYEGERTIRGGPAVTPAGSAGRKMTVEDLIARQMRVGRQEKAHCDSVSFDRDCANAFQHFVNESLAFAVKRGGFMYGNVSEDGQVEVNFIYEPPQQGMEDNLILMRDSEEEKRVDAIALGLGMRRVGFIFNQTVTQDKKEYTLSNVEVLLAAQLHAESELKEWVTAVVKLEINEDGGADVHFEPFQMSDMCVRLFKEGWFETEIGPEDDPKLSKLKKEVVVGVKDVKEVDNDFFLVLVKILDHQGPLSCTFPIENRNTQTTMRALKTHMERARSLPFVKRISDFHLLLFVAQFLDVSSDVPALAECVRLQSHVPEGYELLIDSMANTS
B15: C1S 438-688 S632A (Homo sapiens, UniProt P09871); chain IIGGSDADIKNFPWQVFFDNPWAGGALINEYWVLTAAHVVEGNREPTMYVGSTSVQTSRLAKSKMLTPEHVFIHPGWKLLEVPEGRTNFDNDIALVRLKDPVKMGPTVSPICLPGTSSDYNLMDGDLGLISGWGRTEKRDRAVRLKAARLPVAPLRKCKEVKVEKPTADAEAYVFTPNMICAGGEKGMDSCKGDAGGAFAVQDPNDKTKFYAAGLVSWGPQCGTYGLYTRVKNYVDWIMKTMQENSTPRED
UniProt Q09472, sequence (whole entry, looked up): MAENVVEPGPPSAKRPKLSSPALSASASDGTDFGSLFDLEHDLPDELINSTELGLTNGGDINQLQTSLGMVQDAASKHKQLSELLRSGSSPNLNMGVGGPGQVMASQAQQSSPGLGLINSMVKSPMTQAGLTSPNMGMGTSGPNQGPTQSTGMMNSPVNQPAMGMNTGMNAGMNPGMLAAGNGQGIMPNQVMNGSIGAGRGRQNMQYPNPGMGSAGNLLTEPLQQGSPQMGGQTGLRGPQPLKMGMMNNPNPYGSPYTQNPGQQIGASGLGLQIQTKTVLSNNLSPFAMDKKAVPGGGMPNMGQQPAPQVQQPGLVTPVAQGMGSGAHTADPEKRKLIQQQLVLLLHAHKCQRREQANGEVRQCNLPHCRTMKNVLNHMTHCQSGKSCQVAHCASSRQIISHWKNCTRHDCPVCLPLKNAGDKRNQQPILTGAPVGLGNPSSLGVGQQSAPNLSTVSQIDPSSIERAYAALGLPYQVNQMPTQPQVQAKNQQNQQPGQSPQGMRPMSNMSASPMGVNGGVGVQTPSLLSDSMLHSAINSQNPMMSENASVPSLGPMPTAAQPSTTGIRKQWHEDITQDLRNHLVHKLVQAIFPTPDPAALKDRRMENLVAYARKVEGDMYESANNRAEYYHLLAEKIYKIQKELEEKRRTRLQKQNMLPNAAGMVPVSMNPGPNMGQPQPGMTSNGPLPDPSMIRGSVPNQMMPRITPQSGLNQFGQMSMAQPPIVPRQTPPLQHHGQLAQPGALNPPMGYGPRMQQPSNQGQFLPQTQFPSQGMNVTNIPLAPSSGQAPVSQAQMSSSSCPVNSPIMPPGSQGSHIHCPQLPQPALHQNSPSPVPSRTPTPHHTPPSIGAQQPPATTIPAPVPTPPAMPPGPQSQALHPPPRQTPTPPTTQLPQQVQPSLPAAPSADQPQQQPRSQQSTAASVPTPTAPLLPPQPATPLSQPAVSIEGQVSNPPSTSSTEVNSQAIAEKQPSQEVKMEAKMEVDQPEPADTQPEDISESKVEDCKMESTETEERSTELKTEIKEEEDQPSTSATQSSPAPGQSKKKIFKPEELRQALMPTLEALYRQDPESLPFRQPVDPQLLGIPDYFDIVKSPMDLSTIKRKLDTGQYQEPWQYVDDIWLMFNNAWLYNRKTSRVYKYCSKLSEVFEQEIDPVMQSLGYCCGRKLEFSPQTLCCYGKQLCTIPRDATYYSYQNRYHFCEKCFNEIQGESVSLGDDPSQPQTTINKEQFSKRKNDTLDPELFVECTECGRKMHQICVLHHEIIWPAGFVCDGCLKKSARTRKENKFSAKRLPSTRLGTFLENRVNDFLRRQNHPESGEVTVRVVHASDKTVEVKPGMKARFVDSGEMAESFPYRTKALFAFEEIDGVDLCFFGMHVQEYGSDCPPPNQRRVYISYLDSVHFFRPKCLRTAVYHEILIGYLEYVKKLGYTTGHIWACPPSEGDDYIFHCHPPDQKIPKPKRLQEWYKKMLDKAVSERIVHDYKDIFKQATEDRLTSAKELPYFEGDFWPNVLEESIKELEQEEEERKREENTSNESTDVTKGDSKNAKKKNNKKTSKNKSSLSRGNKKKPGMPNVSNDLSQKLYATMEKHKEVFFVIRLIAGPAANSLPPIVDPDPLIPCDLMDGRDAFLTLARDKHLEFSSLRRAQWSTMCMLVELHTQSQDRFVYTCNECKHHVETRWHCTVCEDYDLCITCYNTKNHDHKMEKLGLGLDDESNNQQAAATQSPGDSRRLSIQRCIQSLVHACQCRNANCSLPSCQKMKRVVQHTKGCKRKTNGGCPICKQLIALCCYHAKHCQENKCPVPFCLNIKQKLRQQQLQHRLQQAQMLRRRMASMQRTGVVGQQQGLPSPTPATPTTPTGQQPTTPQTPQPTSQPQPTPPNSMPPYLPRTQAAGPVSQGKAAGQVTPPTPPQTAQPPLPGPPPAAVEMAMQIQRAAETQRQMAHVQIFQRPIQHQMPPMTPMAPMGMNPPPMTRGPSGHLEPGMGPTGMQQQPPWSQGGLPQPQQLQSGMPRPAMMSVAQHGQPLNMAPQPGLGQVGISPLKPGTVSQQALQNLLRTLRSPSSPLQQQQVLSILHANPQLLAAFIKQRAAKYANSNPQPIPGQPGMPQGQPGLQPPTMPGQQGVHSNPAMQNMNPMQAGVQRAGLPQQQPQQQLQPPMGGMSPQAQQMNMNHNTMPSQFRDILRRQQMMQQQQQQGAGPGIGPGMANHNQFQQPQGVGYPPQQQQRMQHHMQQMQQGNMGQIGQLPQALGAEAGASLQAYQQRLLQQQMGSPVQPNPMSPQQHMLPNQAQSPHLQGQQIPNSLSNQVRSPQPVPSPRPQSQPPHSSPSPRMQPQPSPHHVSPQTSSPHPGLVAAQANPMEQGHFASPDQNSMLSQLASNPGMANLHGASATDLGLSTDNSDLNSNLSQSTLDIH
UniProt Q9BQ39, sequence (whole entry, looked up): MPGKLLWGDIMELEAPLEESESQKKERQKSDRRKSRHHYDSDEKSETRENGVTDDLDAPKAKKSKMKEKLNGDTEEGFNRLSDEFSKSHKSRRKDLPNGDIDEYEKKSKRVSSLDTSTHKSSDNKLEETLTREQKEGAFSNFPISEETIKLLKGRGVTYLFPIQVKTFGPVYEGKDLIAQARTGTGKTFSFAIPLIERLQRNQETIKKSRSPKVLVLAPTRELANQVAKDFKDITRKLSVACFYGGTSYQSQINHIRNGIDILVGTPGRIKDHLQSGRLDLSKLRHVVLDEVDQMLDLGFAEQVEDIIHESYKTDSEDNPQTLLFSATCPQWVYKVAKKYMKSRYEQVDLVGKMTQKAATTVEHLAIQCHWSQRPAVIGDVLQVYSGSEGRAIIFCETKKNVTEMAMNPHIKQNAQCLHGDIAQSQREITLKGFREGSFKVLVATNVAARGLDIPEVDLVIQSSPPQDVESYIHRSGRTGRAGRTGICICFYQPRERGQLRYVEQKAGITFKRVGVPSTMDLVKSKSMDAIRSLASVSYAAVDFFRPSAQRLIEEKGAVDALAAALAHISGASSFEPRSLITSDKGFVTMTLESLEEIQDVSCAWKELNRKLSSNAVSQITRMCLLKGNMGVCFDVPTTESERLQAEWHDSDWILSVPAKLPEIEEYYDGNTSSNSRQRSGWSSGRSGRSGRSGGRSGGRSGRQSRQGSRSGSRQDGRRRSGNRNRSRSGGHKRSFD
UniProt Q99816, sequence (whole entry, looked up): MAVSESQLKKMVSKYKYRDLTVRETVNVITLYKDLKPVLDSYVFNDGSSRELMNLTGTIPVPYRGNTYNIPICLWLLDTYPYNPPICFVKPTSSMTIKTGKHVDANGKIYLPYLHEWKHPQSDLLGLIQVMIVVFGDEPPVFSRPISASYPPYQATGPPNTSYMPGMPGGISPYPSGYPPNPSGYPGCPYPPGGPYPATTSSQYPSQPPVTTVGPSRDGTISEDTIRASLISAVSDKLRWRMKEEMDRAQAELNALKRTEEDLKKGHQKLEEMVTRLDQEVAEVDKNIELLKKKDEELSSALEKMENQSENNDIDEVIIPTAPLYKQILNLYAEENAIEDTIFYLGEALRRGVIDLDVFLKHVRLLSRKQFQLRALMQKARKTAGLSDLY
UniProt P35372, sequence (whole entry, looked up): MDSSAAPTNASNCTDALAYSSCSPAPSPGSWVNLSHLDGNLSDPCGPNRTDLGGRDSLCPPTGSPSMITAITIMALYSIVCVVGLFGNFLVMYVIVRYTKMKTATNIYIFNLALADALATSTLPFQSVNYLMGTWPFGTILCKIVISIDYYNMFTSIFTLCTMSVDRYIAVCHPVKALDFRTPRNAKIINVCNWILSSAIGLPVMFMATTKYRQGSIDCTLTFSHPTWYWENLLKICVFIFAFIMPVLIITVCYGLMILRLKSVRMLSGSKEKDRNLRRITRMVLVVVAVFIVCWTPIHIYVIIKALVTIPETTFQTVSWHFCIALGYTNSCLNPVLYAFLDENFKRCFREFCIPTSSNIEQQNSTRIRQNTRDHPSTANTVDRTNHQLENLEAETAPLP
UniProt P10415, sequence (whole entry, looked up): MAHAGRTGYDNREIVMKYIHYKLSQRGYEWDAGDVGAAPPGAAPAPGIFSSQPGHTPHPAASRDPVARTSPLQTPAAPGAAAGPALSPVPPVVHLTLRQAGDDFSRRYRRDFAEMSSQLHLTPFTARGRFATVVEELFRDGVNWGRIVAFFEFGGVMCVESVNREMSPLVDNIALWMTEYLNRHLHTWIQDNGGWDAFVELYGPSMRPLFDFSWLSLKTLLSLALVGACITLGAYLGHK
UniProt P05155, sequence (whole entry, unmodified, looked up): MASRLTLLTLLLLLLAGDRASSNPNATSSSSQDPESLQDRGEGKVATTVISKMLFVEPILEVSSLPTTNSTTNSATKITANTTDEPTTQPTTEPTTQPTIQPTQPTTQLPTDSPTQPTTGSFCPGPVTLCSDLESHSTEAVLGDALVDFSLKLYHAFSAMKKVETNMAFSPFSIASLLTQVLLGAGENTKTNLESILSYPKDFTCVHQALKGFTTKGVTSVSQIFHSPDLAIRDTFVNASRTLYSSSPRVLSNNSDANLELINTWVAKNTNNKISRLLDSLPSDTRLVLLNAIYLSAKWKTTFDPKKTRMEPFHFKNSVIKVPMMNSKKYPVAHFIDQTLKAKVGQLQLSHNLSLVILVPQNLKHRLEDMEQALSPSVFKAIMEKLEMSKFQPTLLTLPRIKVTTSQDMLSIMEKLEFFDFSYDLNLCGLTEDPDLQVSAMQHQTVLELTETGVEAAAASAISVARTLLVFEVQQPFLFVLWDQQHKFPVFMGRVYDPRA

ENAH EVH1 domain (Homo sapiens) — Kd (DVL1 peptide (Homo sapiens); BLI): > 150 µM
B1 (CFH 1108-1231) — Kd (C3 C3dg 955-1303 (Homo sapiens, UniProt P01024); SPR): 3.8 ± 0.5 µM
B2 (Cacna1c 1647-1777) — Kd (Jph2 1-440 S165N (Mus musculus, UniProt Q9ET78); ITC): 6.82 µM
B3 (PPARG AF-1 1-136) — Kd (PIN1 (Homo sapiens, UniProt Q13526); NMR): 4.08 µM and 4.44 µM
B4 (NFE2L2 99-160) — Kd (EP300 TAZ2 1723-1812 x (Homo sapiens, UniProt Q09472); fluorescence titration): 12.8 ± 10.2 µM
EVPVPPPVPPRRRPES (SOS1 peptide; FITC label) — Kd (GRB2 SH3-1, pY52 (Homo sapiens); fluorescence polarization; peptide): 9.4 µM
colistin — MIC (Pseudomonas aeruginosa; clinical isolate RKI 612/16): 1 mg/L
B5 (FBLN4) — Kd (ELN 27-724 (Homo sapiens, UniProt P15502-2); SPR): 0.0027 µM
DAMGO, D-Ala2; N-MePhe4; C-terminal Gly-ol — Kd (OPRM1 (Homo sapiens, UniProt P35372); radioligand binding; membranes; saturation): 0.00172 µM
B6 (IL23R 24-355) — Kd (IL23A/IL12B mature heterodimer, glycosylated (Homo sapiens); SPR; Fc fusion): 0.0108 µM and 0.0052 µM
B7 (Bcl2l11) — Kd (BCL2 (Homo sapiens, UniProt P10415); FRET or BRET; not purified): 4 µM
B8 (USP3 ZnF-UBD 1-131) — Kd (UBB fragment (Homo sapiens); SPR): > 1000 µM
B9 (CDC48A 1-190) — Kd (PUX6 (Arabidopsis thaliana, UniProt F4IXN6); BLI; 25 °C): 0.0096 ± 0.0001 µM
B10 (LLGL2 13-978) — Kd (PRKCI/PARD6B, activation loop phosphorylated; BLI; steady-state KD, with: AMP-PNP): 0.0765 ± 0.0145 µM
B11 (STAU1) — Kd (DDX50 (Homo sapiens, UniProt Q9BQ39); MST): 0.446 µM
B12 (NR3C1 1-525) — Kd (TSG101 229-304 coiled coil, pyrene label (Homo sapiens, UniProt Q99816); fluorescence anisotropy): 34 µM
B13 (GIGYF1 33-103 E44A/E45F/Q87A) — Kd (EIF4E2 52-234 Q159S/M161D/R202E (Homo sapiens, UniProt O60573-1); ITC; peptide): 0.0004 ± 0.0003 µM
BAK1 BH3, N-acetyl; C-terminal amide (Homo sapiens) — Kd (MBP/MCL1 MCL-1, Alexa 647 label (Homo sapiens); MST): 0.0205 ± 0.008 µM
GCVRLHESCLGQQVPCCDPAATCYCTGRGDEKLRCYCR (designed peptide AgRP scaffold) — Kd (ITGAV/ITGB3 U87MG cells (Homo sapiens); flow cytometry; designed binder, U87MG): 0.013 µM
B14 (protein F105A) — Kd (CDC48A (Arabidopsis thaliana, UniProt P54609); ITC; with: AMPPNP): 3.9 µM
B15 (C1S 438-688 S632A) — Kd (SERPING1 111-500 K328A/K329A (Homo sapiens, UniProt P05155); SPR; with: Ca2+): 4.7 µM

Repeated from above:
DAMGO, D-Ala2; N-MePhe4; C-terminal Gly-ol — Kd (OPRM1 (Homo sapiens, UniProt P35372); radioligand binding; membranes; saturation): 0.00172 µM
B6 (IL23R 24-355) — Kd (IL23A/IL12B mature heterodimer, glycosylated (Homo sapiens); SPR; Fc fusion): 0.0108 µM and 0.0052 µM
B7 (Bcl2l11) — Kd (BCL2 (Homo sapiens, UniProt P10415); FRET or BRET; not purified): 4 µM
